Published values collected from several papers.
Each numbered part is a random draw from the data of one study; scales do not carry over between parts. Changes are numbered by the printed parent chain.

Sample 1
Target: CCNB3, cyclin fold, Cln2 fusion (human)
Method: yeast growth competition, sequencing
Sample: yeast
Notes: weak parent motif
Relative to: not given
Reading: higher = stronger binding
Starting sequence: PKMYT1 docking peptide (human); SFEPRNLLSLFED
Change | normalised enrichment score
S9I | 0.588
F11R | -0.0985
F11L | 0.126
S1I | 0.24
E3Q | 0.29
R5M | 0.409
L7H | 0.382
L10K | -0.536
F11K | 0.499
F11E | 0.376
F2V | -0.0057
L10N | 0.349
E12Q | 0.412
S9E | 0.568
N6S | 0.633
F2S | 0.0431
S1K | -0.103
S9T | 0.502
L7I | 0.414
S9M | 0.406
S1F | 0.567
P4G | 0.451
E3I | 0.209
P4I | 0.043
S1L | 0.44

Sample 2
Target: RING finger protein unkempt homolog, zinc fingers 1-6, GST-SBP tag (UNK, Homo sapiens, UniProt Q9C0B0, residues 30-357)
Method: RNA Bind-n-Seq
Form: RNA
Sample: in vitro
Tested at: not given
Notes: RNA with constant flanks, human and mouse sites, ends assumed
Relative to: input RNA pool
Reading: higher = stronger binding
Constant ends, left off below: GGGAGUUCUACAGUCCGACGAUC … CAACAGAGGAUUGAGCAUCA
Construct (chain): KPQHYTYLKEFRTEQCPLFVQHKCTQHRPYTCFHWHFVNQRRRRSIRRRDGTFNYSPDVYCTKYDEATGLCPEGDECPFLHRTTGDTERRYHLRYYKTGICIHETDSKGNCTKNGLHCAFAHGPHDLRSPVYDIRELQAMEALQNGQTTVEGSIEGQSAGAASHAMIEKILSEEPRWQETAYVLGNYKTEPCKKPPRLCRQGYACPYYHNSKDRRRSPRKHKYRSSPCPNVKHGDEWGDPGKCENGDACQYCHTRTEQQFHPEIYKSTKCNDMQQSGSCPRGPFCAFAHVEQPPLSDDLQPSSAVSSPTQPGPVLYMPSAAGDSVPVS
Strand | bound/input enrichment [ratio]
UCUGUGGUGGUGAGGCGGCGGUCACCCCGUCCUAGCCCCGUGCCAAAACCUAGUCCUCCACUUUCCAGCACAUCCCAGAUGGGCUCAACUCUGCCGAGUGGUGCCGGGUAUCAGUCUGGG | 0.0852
GCAGUUAAGAAGCUGGGCGCGUCGAGGACUGGGAUUUCAAAUAUGCGUGCAUUAGAGAAUGACUUUUUCAAUUCUCCCCCAAGAAAAACUGUUCGGUUUGGUGGAACUGUGACAGAAGUC | 0.464
UUGCUUUGCUGGUUUCAUAUUUAUUUGUUGUAUUUAAAAACUGCAUUAUUGUGAGAGUGAUUUUUUUCCAGGAUAUUUUAUUCUUGGGGGAGGGGGUCAGUGCUAUAAUCUUGAAGAAAA | 0.543
CUAGAAGUCCUGCCAGGUAGUUUGAUAAGAAUGCCUACCCAGUGCCCCCAGGCUUACAUACUUGAAUUGCUGAGUCAUCAGGGAUUACGGGAGAGGCUUAGGAGGUGUGGCUUUAUUGGA | 0.76
GGCACACGGCUUUCUUUCUCUGUGUGUUCGCCUCUUUCUUCUCUUUUAUUUGCCUUAUUCUAUAGGAUUUUUGUCCUCUAAGAUUCUACCUGGGAUUUUCCUUUGGAAAAGUUGCUGUGG | 0.512
GUGAAGAGAAACAAUUUCUAGCCUUCUUGCCAAAUCCAGACCUCUGGUUGACUUUUCUUUCAUAGAAGAUGGAGUUAUCUUCCAGUUUUCCAACUUAAAUUUAUUUAGCCUUUAUAUUAU | 293
AACUCCUGUGAUGAGCACAUGGAGCUUGAUGACCUUCCUGAACUUCAGGCUGUUCAAAGUGACCCUACCCAAUCUGCCAUAUACCAGCUAAGUUCAGAUGUAUCUCAUCAAGAAUAUCCA | 0.147
CUCAUGCCUUCCAGUCUGCAGACCCCUCAGACCCAGGAGCAGAAUGGGAUUCUAGACUGGCUUAGGAAACUGCGUUUGCACAAGUAUUACCCCGUCUUUAAGCAGCUCUCCAUGGAGAAG | 0.166
CGUUUGGGAUUUUAUUUUGUCUGUGUUUGGAAUUUUACUUCUCUCUUGGACAAGAACUCAAGAACAAAAUCCUCGGAAGAGGAAGGCAUCCCUGGAGUGGUUUCUUUACUGUACUUCCAU | 0.184
ACAGUUGUGCCACAAGUGCCCACCUCUCCUAAAUCCAGCCUUAGCGUCCAACCUGGAUUCCUAGCUGAUCUUAACAGGACAUUGCAGCGCAAGUCUAUCACGCGGCAUGGCUCCCUGUCC | 0.159
ACCUGGUCCCAUCACCUACAGCAAGCCAACAUCCAGUUCCGUACAGAUAUUGCCAGGACGGAAUACCUUUCCAAUGCUGAUGAGCGUCUUCGCUGGCAGGCCAGCUCCUUGCCUGCUGAU | 0.317

Sample 3
Target: Centromere-binding protein 1, full length, N-terminal tag (CBF1, Saccharomyces cerevisiae, UniProt P17106, residues 1-351)
Sequence of UniProt P17106 (whole entry, looked up): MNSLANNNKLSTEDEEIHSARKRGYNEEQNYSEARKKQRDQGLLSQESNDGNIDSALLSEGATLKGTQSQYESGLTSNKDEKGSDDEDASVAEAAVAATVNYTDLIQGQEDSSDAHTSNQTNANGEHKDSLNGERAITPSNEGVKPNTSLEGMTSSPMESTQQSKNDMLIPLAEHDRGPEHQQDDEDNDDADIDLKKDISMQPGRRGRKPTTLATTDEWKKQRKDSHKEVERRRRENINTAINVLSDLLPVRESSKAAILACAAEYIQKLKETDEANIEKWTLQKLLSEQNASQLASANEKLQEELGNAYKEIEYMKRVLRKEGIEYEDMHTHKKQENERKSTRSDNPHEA
Method: protein-binding microarray
Form: double-stranded DNA, one strand shown
Sample: in vitro
Tested at: 0.8 µM
Notes: whole 60-bp probe, no competitor
Reading: higher = stronger binding
Constant ends, left off below: … GTCTTGATTCGCTTGACGCTGCTG
Strand | fluorescence intensity
GAATGTTCCTCGATTCACGTGCTCAGTATCTTGTAG | 7110 a.u.
CTAAGCACGTGAGTATACGTGATTAAGCACACATTC | 5760 a.u.
CTACTGGATGATTATCAGGTGTAAGCAATAAGATTC | 668 a.u.
CTAGTTTTCAAACAACATGTGCCATGTAAGATATTC | 882 a.u.
CTAATTGGGCTCTATCACGATACTCCATTTAACTTC | 722 a.u.
GAAAAGAACGCACATCAGCAGAATAATGGGAGGTAG | 552 a.u.
CTATTCTCTTGGGTAAACGTGTAATTCGATGATTTC | 564 a.u.
TGTACGAAGCTATATCTCGTGTTTATAGTAGTTAGG | 632 a.u.
CTAAGGGTAATACATCAGGTAGGTTGAAAATTATTC | 490 a.u.
GAATAGTCATAAGGTGACACAGCGTGGGTGTACTAG | 545 a.u.
GAATTTCGCACGTTGCACGAGTCGCAATGAATATAG | 717 a.u.
GAACCAGTGATGAAGCACCTGATTCAACTGCCGTAG | 1080 a.u.
CTAGCCTTCCCGTCGCGCGTGATTTGGAGATACTTC | 960 a.u.
GAAAACCATCGTTTTCACGTTTTTTAATTTTTTTAG | 975 a.u.
GAAAGCAAAAGGCAGTGCGTGATAATGTTTCTATAG | 660 a.u.
CCTAACTACTATATTCACGTTCGATAGCTTCGTACA | 547 a.u.
GAACTTGGTTCTGGTGGTGTCTTGCGTCTTCTCTAG | 504 a.u.
CTAATTGAATAACCTCAGTCACCTTGTGCAAGATTC | 540 a.u.
GAAGGGCAATTTCCAAACGTGCAAAGTGTTATCTAG | 550 a.u.
GAAATATTTCTCTGTCACCCGGCCTCTATTTTCTAG | 559 a.u.
CCTAACTACTATACACGTGCGATATAGCTTCGTACA | 5400 a.u.
GAAGGCCTCTTTTCTGACGTGAATGTCACATGTTAG | 2880 a.u.
GAAGTACACTTTCATCACGCAGTACGGATTTTTTAG | 524 a.u.
CTACACCATTCGGGGCAGGTGACGAAGCAAGAGTTC | 1580 a.u.
GAACTAGTATTTACAGGTGAGAAGTTTACTTATTAG | 551 a.u.

Sample 4
Target: ABI1, truncated, D143A, DHFR fusion (Arabidopsis thaliana)
Method: DHFR PCA, deep sequencing
Sample: yeast
Notes: methotrexate growth selection, single substitutions
With: (+)-ABA 0.39 µM
Relative to: wild-type fitted maximum
Reading: higher = stronger binding
Starting sequence: PYL1, truncated, DHFR fusion (Arabidopsis thaliana); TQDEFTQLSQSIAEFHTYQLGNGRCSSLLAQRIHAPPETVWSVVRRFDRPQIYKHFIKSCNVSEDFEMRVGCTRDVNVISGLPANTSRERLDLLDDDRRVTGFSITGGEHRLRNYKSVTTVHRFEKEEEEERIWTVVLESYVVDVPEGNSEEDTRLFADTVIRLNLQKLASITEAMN; partner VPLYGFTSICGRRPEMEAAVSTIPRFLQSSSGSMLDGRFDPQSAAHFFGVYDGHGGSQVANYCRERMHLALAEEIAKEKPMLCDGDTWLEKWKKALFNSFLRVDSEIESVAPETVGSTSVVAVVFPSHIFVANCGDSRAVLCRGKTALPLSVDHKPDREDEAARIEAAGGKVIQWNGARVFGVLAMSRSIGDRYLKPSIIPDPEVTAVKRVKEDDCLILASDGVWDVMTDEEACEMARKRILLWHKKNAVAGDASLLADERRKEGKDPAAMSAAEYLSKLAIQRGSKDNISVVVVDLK
Change | relative binding score [%]
Q10Y | 10.4
F56H | 5.27
I79L | 3.51
V78Y | 93.9
V100Y | -6.58
L112A | -6.36
Q51E | 31.7
L112G | -9.65
G107W | -0.904
V143Q | -10.6
W41P | 1.13
F157H | 22.8
E109Y | -4.06
R88V | 51.7
C60T | 10.8

Sample 5
Target: UBE2O UBC core domain (UniProt Q9C0C9)
Method: yeast two-hybrid
Sample: yeast
Notes: mostly zero background
Relative to: not given
Reading: higher = stronger interaction
B1: RNF10 RING domain (UniProt Q8N5U6); chain VRICSHEVPSCPICLYPPTAAKITRCGHIFCWACILHYLSLSEKTWSKCPICYSSVHKKDLKS
B2: TRIM68 RING domain (UniProt Q6AZZ1); chain LVEAIVEEVACPICMTFLREPMSIDCGHSFCHSCLSGLWEIPGESQNWGYTCPLCRAPVQPRNLRP
B3: MARCHF2 RING domain (UniProt Q9P0N8); chain RLLSTVIRALDTPSDGPFCRICHEGANGECLLSPCGCTGTLGAVHKSCLEKWLSSSNTSYCELCHTEFAVEKRPRPLTEWL
B4: CBLL1 RING domain (UniProt Q75N03); chain GEKDDTPVHFCDKCGLPIKIYGRMIPCKHVFCYDCAILHEKKGDKMCPGCSDPVQRIEQCT
B5: TRIM34 RING domain (UniProt Q9BYJ4); chain ILLNVQEEVTCPICLELLTEPLSLDCGHSLCRACITVSNKEAVTSMGGKSSCPVCGISYSFEHLQA
B6: TRIM74 RING domain (UniProt Q86UV6); chain SLLELEDWLQCPICLEVFKESLMLQCGHSYCKGCLVSLSYHLDTKVRCPMCWQVVDGSSSLP
B7: MDM2 RING domain (UniProt Q00987); chain TQDKEESVESSLPLNAIEPCVICQGRPKNGCIVHGKTGHLMACFTCAKKLKKRNKPCPVCRQPIQMIVLTYFP
B8: NHLRC1 RING domain (UniProt Q6VVB1); chain MREAEISLLECKVCFEKFGHRQQRRPRNLSCGHVVCLACVAALAHPRTLALECPFCRRACRGCDTSD
B9: RNF11 RING domain (UniProt Q9Y3C5); chain RDGSEKKIRECVICMMDFVYGDPIRFLPCMHIYHLDCIDDWLMRSFTCPSCMEPVDAALLSS
Construct (chain): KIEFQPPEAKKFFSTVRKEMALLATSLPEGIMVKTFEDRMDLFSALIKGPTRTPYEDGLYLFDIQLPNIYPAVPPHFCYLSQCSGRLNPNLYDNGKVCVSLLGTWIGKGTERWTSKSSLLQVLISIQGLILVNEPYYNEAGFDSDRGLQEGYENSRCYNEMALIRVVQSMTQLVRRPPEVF
Sequence | lacZ reporter activity
B1 (RNF10 RING domain) | 0
MEEMEEELKCPVCGSFYREPIILPCSHNLCQACARNILVQTPESESPQSHRAAGSGVSDY (TRIM9 RING domain (UniProt Q9C026)) | 0
B2 (TRIM68 RING domain) | 0
B3 (MARCHF2 RING domain) | 0
B4 (CBLL1 RING domain) | 0
VPADASPDSKCPICLDRFDNVSYLDRCLHKFCFRCVQEWSKNKAECPLCKQPFDSIFHSV (TOPORS RING domain (UniProt Q9NS56)) | 0
AAQLLEEKLTCAICLGLYQDPVTLPCGHNFCGACIRDWWDRCGKACPECREPFPDGAELR (TRIM65 RING domain (UniProt Q6PJ69)) | 0
B5 (TRIM34 RING domain) | 0
SNNDLASLFECPVCFDYVLPPILQCQSGHLVCSNCRPKLTCCPTCRGPLGSIRNLA (SIAH1 RING domain (UniProt Q8IUQ4)) | 0
B6 (TRIM74 RING domain) | 0
B7 (MDM2 RING domain) | 0
B8 (NHLRC1 RING domain) | 0
B9 (RNF11 RING domain) | 0

Excerpt of the above (sample 1):
Change | normalised enrichment score
F2S | 0.0431
F11R | -0.0985
S9M | 0.406
S9T | 0.502
L7I | 0.414
S9E | 0.568
P4I | 0.043
S1F | 0.567
E3Q | 0.29
E12Q | 0.412
R5M | 0.409
S9I | 0.588
